Experimental data pooled from the literature.
Protocols differ between the studies behind these lines. Several values in a cell are separate wells, animals, samples, runs or records. ± marks the error that the study gave.
Tumor necrosis factor receptor superfamily member 9: Tumor necrosis factor receptor superfamily member 9 (Homo sapiens, UniProt Q07011)
RPA1 N-terminal domain: Replication protein A 70 kDa DNA-binding subunit, N-terminal domain (RPA1, Homo sapiens, UniProt P27694)
CD28: CD28 (Homo sapiens, UniProt P10747)
CD27: CD27 antigen (CD27, Homo sapiens, UniProt P26842)
EPHA2: Ephrin type-A receptor 2 (EPHA2, Homo sapiens, UniProt P29317)

Amino acid sequences for entries named in this document (tags omitted). A change or cut given only in a name is not applied to a line headed by its entry. Residues count along the entry.
UniProt Q07011, 24-255 limits assumed: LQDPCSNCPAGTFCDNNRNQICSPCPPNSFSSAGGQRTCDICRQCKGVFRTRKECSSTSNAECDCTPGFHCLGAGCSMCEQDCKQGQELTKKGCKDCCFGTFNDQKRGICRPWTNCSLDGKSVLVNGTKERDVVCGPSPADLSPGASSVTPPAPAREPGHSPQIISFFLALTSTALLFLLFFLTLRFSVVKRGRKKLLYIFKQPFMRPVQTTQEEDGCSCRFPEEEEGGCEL
UniProt Q07011, whole entry, looked up: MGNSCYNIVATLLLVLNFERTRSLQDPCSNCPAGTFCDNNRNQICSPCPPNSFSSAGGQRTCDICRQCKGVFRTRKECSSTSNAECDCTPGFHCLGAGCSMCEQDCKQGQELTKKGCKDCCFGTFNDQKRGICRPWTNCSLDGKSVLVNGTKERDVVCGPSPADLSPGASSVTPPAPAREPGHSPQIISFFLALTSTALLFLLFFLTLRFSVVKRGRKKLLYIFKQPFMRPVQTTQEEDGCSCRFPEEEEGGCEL
UniProt P10747, whole entry, looked up: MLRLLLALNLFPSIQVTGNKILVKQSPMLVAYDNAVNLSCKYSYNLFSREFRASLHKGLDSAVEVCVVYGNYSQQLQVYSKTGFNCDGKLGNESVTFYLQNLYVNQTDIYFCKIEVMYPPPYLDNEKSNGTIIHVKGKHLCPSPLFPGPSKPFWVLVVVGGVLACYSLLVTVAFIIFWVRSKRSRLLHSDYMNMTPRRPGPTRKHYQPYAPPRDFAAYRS
UniProt P26842, whole entry, looked up: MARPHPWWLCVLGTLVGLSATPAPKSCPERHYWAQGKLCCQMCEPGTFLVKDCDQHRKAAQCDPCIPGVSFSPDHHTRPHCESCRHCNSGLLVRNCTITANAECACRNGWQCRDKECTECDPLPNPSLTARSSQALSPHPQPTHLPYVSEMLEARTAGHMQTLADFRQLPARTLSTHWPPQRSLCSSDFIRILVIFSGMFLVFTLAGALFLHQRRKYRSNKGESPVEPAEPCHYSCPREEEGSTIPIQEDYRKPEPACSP
UniProt Q9Y3Z3, whole entry: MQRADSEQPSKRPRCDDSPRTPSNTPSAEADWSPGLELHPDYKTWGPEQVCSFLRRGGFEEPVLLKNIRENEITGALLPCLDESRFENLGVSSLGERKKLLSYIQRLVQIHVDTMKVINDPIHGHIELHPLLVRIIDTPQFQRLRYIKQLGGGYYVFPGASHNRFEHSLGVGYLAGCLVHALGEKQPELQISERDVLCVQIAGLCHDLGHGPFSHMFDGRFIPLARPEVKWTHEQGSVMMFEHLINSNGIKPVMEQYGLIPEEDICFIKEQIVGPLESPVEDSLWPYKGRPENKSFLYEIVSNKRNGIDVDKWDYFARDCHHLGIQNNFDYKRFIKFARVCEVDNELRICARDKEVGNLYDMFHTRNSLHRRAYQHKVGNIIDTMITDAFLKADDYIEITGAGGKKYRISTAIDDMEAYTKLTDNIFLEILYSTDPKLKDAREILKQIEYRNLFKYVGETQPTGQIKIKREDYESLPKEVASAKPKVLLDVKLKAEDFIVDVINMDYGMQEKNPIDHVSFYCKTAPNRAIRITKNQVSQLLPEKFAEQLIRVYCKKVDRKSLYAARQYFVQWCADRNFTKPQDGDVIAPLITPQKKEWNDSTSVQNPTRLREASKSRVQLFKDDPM
UniProt O15151, 23-111 limits assumed: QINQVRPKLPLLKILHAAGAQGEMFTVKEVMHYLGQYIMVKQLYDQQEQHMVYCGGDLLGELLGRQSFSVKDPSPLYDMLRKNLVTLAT
UniProt O95433, whole entry: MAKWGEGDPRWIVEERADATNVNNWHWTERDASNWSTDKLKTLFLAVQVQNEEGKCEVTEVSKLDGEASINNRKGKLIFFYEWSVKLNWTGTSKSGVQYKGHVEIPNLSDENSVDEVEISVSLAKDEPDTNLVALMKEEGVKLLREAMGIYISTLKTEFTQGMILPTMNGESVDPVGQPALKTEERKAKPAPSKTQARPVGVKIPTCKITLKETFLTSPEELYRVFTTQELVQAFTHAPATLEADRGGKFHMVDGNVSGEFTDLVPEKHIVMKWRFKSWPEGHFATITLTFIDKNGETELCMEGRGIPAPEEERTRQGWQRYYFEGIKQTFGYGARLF
UniProt Q8TDQ0, whole entry, looked up: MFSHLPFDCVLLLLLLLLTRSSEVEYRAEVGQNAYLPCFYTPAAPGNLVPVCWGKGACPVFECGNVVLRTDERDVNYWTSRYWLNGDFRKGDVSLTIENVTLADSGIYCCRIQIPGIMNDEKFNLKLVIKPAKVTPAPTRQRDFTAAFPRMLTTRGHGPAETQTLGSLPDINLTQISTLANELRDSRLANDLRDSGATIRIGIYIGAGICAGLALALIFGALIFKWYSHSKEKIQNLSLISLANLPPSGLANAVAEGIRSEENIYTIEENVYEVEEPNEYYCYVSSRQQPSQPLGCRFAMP
UniProt P62942, whole entry F37V: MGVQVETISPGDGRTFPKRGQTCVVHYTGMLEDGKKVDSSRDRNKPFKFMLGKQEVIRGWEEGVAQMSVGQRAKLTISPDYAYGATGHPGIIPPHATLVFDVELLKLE
UniProt P55217, 69-563 limits assumed: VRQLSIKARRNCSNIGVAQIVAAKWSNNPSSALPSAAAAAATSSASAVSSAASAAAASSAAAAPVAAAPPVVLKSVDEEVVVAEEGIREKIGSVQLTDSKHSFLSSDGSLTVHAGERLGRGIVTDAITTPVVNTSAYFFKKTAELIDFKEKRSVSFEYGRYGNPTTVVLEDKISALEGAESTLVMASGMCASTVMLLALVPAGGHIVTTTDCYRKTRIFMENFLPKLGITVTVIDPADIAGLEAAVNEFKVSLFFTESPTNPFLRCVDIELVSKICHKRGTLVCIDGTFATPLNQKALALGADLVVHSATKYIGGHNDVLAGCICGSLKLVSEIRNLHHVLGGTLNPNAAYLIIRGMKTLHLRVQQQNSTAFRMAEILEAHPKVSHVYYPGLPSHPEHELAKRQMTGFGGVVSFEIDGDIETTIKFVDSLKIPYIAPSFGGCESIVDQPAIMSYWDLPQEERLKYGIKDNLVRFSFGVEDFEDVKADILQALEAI
UniProt Q15109, whole entry, looked up: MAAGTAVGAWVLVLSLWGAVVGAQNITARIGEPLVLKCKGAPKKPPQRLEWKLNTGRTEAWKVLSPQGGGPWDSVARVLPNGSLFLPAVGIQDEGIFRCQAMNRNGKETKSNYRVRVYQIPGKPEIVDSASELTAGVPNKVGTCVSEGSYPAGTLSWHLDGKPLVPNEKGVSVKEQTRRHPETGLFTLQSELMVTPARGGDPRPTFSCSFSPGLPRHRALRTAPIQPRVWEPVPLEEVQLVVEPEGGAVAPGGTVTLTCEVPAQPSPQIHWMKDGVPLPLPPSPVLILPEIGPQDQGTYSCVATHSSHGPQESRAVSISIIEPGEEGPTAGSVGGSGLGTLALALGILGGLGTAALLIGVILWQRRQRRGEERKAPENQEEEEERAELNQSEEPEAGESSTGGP
UniProt Q51714, 1-616: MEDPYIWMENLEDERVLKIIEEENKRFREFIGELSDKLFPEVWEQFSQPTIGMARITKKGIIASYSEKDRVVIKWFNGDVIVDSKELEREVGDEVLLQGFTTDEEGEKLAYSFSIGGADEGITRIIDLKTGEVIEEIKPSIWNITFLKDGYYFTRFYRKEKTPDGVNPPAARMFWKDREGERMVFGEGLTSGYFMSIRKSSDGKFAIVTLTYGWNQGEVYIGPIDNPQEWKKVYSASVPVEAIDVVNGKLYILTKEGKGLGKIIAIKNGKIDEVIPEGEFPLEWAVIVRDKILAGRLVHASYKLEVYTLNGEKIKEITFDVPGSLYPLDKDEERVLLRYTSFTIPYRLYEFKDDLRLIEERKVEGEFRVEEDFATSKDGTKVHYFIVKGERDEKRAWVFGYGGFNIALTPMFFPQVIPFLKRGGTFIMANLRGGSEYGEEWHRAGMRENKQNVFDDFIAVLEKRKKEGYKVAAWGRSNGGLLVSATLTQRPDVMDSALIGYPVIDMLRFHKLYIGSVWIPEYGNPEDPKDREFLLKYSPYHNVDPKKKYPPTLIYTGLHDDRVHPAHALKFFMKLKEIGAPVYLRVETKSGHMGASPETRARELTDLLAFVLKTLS
UniProt Q9UBZ9, 1158-1251 limits assumed: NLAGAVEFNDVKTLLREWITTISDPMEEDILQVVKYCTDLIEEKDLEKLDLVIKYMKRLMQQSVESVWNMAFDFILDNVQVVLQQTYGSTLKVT
UniProt P04406, whole entry, looked up: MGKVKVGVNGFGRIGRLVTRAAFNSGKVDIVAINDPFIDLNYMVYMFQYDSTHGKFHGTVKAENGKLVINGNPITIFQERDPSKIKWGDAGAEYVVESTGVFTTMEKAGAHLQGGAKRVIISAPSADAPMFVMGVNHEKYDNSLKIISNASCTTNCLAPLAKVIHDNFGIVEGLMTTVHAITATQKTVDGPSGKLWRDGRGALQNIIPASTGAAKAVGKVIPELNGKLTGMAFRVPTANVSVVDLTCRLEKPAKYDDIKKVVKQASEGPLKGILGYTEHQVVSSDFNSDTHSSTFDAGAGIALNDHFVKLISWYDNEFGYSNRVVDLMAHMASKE
UniProt P45983, 1-384 isoform 3: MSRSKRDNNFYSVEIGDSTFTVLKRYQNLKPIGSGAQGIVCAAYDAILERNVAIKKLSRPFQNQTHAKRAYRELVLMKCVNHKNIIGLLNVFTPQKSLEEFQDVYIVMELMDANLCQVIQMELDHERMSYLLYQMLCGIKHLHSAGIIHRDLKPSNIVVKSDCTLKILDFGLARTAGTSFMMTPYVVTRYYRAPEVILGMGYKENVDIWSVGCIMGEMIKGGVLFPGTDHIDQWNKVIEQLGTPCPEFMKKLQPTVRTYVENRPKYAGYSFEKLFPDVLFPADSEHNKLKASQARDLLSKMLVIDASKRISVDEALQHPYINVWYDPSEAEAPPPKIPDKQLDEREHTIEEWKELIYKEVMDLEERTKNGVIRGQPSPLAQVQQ
UniProt Q06187, whole entry: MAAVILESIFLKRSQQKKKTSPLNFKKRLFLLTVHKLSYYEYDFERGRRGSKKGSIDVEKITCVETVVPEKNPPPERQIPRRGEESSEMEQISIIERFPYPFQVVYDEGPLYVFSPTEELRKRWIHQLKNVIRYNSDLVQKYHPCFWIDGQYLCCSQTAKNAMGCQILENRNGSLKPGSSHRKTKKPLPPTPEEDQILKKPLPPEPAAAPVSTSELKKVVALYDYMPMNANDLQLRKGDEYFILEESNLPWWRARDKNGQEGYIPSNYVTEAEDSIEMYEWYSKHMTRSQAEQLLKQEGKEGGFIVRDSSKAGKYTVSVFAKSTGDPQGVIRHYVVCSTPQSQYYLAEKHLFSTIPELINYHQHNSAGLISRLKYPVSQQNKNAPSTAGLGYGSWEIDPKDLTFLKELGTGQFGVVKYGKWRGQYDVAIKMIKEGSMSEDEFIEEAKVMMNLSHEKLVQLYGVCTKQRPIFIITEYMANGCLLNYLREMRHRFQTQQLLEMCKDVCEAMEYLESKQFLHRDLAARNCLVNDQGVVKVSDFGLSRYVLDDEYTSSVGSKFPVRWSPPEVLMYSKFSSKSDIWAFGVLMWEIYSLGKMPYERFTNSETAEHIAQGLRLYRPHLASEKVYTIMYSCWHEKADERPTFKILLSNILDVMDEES
UniProt Q9H6E5, whole entry: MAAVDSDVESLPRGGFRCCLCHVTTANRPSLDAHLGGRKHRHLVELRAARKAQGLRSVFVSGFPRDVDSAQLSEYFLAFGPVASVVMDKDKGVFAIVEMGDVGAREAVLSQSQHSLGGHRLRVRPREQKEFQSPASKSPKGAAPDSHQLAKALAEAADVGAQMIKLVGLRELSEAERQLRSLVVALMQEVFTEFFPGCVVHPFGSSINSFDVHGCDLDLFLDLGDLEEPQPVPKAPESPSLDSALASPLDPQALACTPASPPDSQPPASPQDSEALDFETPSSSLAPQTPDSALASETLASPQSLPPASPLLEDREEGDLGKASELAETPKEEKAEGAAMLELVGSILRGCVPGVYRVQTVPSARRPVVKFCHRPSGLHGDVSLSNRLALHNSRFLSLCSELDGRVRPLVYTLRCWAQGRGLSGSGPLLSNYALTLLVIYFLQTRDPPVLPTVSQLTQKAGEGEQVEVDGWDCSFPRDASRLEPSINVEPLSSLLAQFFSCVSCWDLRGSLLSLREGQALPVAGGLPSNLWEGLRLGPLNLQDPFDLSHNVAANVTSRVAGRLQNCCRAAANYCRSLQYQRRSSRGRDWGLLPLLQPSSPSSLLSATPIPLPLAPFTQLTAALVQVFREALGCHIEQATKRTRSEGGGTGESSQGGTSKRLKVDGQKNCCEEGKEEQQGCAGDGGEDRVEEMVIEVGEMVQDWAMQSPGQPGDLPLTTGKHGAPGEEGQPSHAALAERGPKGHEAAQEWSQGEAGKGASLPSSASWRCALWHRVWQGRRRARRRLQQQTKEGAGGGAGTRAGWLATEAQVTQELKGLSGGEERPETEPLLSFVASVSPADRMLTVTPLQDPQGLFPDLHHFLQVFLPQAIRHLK
UniProt Q7Z6A9, whole entry, looked up: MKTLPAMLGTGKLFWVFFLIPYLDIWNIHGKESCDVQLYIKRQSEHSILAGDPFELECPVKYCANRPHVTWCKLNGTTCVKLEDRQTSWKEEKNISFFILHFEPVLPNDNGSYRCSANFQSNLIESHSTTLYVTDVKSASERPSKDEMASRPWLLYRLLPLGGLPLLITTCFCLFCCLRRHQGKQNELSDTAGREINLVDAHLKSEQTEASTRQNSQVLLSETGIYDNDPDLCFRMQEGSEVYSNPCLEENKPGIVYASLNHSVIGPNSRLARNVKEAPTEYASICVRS

The Kd of `CN(C)c1nc2nonc2nc1N(C)CCc1nc2cc(F)ccc2[nH]1` is reported as 0.42 µM (Tumor necrosis factor receptor superfamily member 9; microscale thermophoresis).
`Nc1nc2c(ncn2COCCNC(=O)c2cc3cc(Br)ccc3c(Br)c2O)c(=O)[nH]1` has a Kd of 13 ± 3 µM (Deoxynucleoside triphosphate triphosphohydrolase SAMHD1, A1 site (SAMHD1, Homo sapiens, UniProt Q9Y3Z3); binding at allosteric site A1, fluorescence anisotropy competition; 1 µM protein).
With `CC(C)Oc1cc(C#N)ccc1C1=N[C@@H](c2cccc(Cl)c2)[C@@H](c2ccc(Cl)cc2)N1C(=O)N1CCNC(=O)C1` the Kd was 0.6 µM and < 1 µM (Protein Mdm4 (MDM4, Homo sapiens, UniProt O15151); isothermal titration calorimetry; 298 K).
`O=C(NNC(=S)Nc1cccc(C(F)(F)F)c1)c1cccn1-c1ccc(F)cc1` gave a Kd of 1.74 µM (Activator of 90 kDa heat shock protein ATPase homolog 1 (AHSA1, Homo sapiens, UniProt O95433); binding, fluorescence quenching; acrylodan-labelled Aha1).
The Kd of `O[C@@H]1[C@H](O)[C@@H]2C[C@@H]2[C@H]1n1cnc2c(NCc3cccc([125I])c3)nc(Cl)nc21` is reported as 0.00335 ± 0.00054 µM (Adenosine receptor A3 (Canis lupus familiaris, UniProt Q28309); binding, saturation binding; HEK293 cell membranes; 2 h, room temperature).
`O=S(=O)(c1cccc2cnccc12)N1CCNCC1` has a Kd of 0.056 µM (Rho-associated protein kinase 1 (ROCK1, Homo sapiens, UniProt Q13464); KINOMEscan binding).
`Cc1cc(-c2ccc3nc(-c4cnn(CC(C)(C)O)c4)nc(N4CCOC[C@@H]4c4ccccc4)c3c2)cn(C)c1=O` (single isomer, unassigned) gave a Kd of 0.032 µM (CREB-binding protein (CREBBP, Homo sapiens, UniProt Q92793); binding, BROMOscan competition binding).
With `COc1ccc(NS(=O)(=O)c2cc(C(=O)Nc3ccccc3C(=O)O)ccc2C)cc1` the Kd was 234 ± 3 µM (RPA1 N-terminal domain; binding, fluorescence polarisation competition; together with: FITC-ATRIP probe).
The Kd of `CCc1ccc(NC(=O)Nc2nnc(Sc3nc4c(c(=O)n(C)c(=O)n4C)n3C)s2)cc1` is reported as 0.0425 µM (Cyclin-dependent kinase 8, with cyclin C (CDK8, Homo sapiens, UniProt P49336); binding, reporter displacement).
`Cc1cccc(-c2noc(-c3cn(CC(=O)NCc4ccc5c(c4)OCO5)c4nc(C)ccc4c3=O)n2)c1` has a Kd of 2.12 µM (Catenin beta-1, residues 141-305 (CTNNB1, Homo sapiens, UniProt P35222); isothermal titration calorimetry; 25 °C).
For `CC(=O)Nc1ccc(S(=O)(=O)N2CCC(CC(=O)NCCCN3CCCCC3)CC2)cc1`, the Kd was 1.71 µM (Hepatitis A virus cellular receptor 2 (Homo sapiens, UniProt Q8TDQ0); microscale thermophoresis).
With `CC[C@H](C(=O)N1CCCC[C@H]1C(=O)O[C@H](CCc1ccc(OC)c(OC)c1)c1cccc(OCC(=O)OC(C)(C)C)c1)c1cc(OC)c(OC)c(OC)c1` the Kd was 0.016 µM (Peptidyl-prolyl cis-trans isomerase FKBP1A (FKBP1A, Homo sapiens, UniProt P62942, F37V); binding, surface plasmon resonance).
The Kd of `CC(CC(=O)OCc1ccc(-n2cccn2)cc1)c1ccncc1` (centres unmarked) is reported as 50.3 ± 13.1 µM (CD28; microscale thermophoresis; 2% DMSO).
For `CCN(C(=O)COc1ccc(Cl)cc1)c1nnc(-c2ccc(C(C)(C)C)cc2)s1`, the Kd was 4.94 µM (V-type immunoglobulin domain-containing suppressor of T-cell activation (VSIR, Homo sapiens, UniProt Q9H7M9); microscale thermophoresis).
For `O=C(O)CCCOc1ccccc1[C@@H](NS(=O)(=O)c1ccc2[nH]c(=O)ccc2c1)C(=O)N(CC(=O)O)Cc1cccs1`, the Kd was ~0.005 µM (UDP-N-acetylglucosamine--peptide N-acetylglucosaminyltransferase 110 kDa subunit (OGT, Homo sapiens, UniProt O15294); binding, microscale thermophoresis; active site).
With `Cc1ccc(NS(=O)(=O)c2cc(C(=O)Nc3ccccc3C(=O)O)ccc2C)cc1` the Kd was 196 µM (RPA1 N-terminal domain; binding, fluorescence polarisation competition; together with: FITC-ATRIP probe).
`CCCCNC(=S)N(CCCN1CCOCC1)Cc1cc2cc(C)cc(C)c2[nH]c1=O` has a Kd of 2.04 µM (Tumor necrosis factor receptor superfamily member 9; binding, microscale thermophoresis).
`COc1cccc(C(=O)Nc2cccc(-c3nc(C)cc(=O)[nH]3)c2)c1` has a Kd of 14 µM (Cystathionine gamma-synthase 1, chloroplastic (CGS1, Arabidopsis thaliana, UniProt P55217); binding, microscale thermophoresis).
For `CC(=O)Nc1ncc(CN2CC[C@H](Oc3cccc(F)n3)C[C@@H]2C)s1` [isotope labelled], the Kd was 0.0007 ± 0.0015 µM (Protein O-GlcNAcase (OGA, Homo sapiens, UniProt O60502); saturation binding; human cerebellum homogenate; radiolabelled compound).
For `O=C(O)c1ccncc1Nc1nn(CCN2CCC(F)(F)CC2)c2ccc(F)cc12`, the Kd was 0.025 to 0.05 µM (Lysine-specific demethylase 5A (KDM5A, Homo sapiens, UniProt P29375, del88-347); binding, isothermal titration calorimetry).
`CN(C(=O)CSc1nnc(Nc2ccccc2F)s1)c1ccccc1` has a Kd of 30.5 ± 4.8 µM (CD28; binding, microscale thermophoresis).
`O=C(CCCCCCC(=O)Nc1ccc(-c2c3ccc(=O)cc-3oc3cc(O)ccc23)c(C(=O)O)c1)NO` has a Kd of > 40 µM (Protein deacetylase HDAC6 (HDAC6, Homo sapiens, UniProt Q9UBN7); binding, fluorescence anisotropy; low affinity nonspecific site).
The Kd of `Cc1cc(NS(=O)(=O)c2cc(C(=O)Nc3ccccc3C(=O)O)ccc2C)ccc1Cl` is reported as 58 ± 11 µM (RPA1 N-terminal domain; binding, fluorescence polarisation competition; together with: FITC-ATRIP probe).
`CC(C)CN(CC(=O)N(CC(=O)N(CC(=O)N(CC(=O)N(CC(=O)N(CC(=O)N(CC(N)=O)Cc1ccccc1)Cc1ccccc1)CC(C)C)Cc1ccccc1)Cc1ccccc1)CC(C)C)C(=O)CNCCCCN` gave a Kd of 0.058 ± 0.012 µM (Advanced glycosylation end product-specific receptor, extracellular domain (AGER, Homo sapiens, UniProt Q15109)).
With `c1ccc(-c2ccccn2)nc1` the Kd was 37 µM and 36.8 µM (prolyl oligopeptidase (Pyrococcus furiosus, UniProt Q51714); binding, luminescence lifetime titration; water; with or without 0.5% acetonitrile, together with: wild-type protein 0 to 300 µM).
For `NC(=O)c1ccc(-n2cccc2Cc2c(F)cccc2F)cc1N[C@H]1CC[C@H](O)CC1`, the Kd was > 100 µM (Heat shock protein HSP 90-alpha (HSP90AA1, Homo sapiens, UniProt P07900); fluorescence polarization; together with: FITC-geldanamycin).
The Kd of `COc1ccc(N2CC(=O)C(c3nc(C)cs3)=C2N)c(OC)c1` is reported as 0.199 µM (His-SUMO-tagged ancestral FSP1; surface plasmon resonance).
`O=C(Nc1ccc(C(=O)N2CC(c3nccs3)C2)s1)[C@@H]1CCCN1` has a Kd of 11.8 µM (YEATS domain-containing protein 4, YEATS domain; dimeric (Homo sapiens, UniProt O95619); ITC; dimeric GST-YEATS domain).
The Kd of `Cc1ccc(N=Nc2ccc(N)cc2N)cc1C` is reported as 3.9 ± 0.2 µM (DNA repair protein REV1, C-terminal domain (Homo sapiens, UniProt Q9UBZ9); microscale thermophoresis; cis-trans isomer mixture, together with: labelled DNA repair protein REV1 20 nM).
The Kd of `O=C(c1ccc2c(c1)OCO2)N1CCCC1c1nnc(-c2nccc3ccccc23)o1` (centres unmarked) is reported as 1.23 µM (CD27; binding, microscale thermophoresis).
With `COc1cc([C@@H]2c3cc4c(cc3[C@@H](OC3CCCCC3)[C@H]3COC(=O)[C@H]23)OCO4)cc(OC)c1OC` the EC50 was > 100 µM (Leishmania infantum; iRFP fluorescence; mouse splenocytes infected, amastigote, iRFP, ex vivo splenic explant; 48 h).
The Kd of `Cc1ccc(C(=O)Nc2ccc(F)cc2C(=O)O)cc1S(=O)(=O)Nc1ccc(Br)cc1` is reported as 48 ± 8 µM (RPA1 N-terminal domain; binding, fluorescence polarisation competition; together with: FITC-ATRIP probe).
`Cc1ccc(C(=O)Nc2cccc(Cl)c2)cc1Nc1nc(-c2cccnc2)nc2c1cnn2C` gave a Kd of 0.003 µM (EPHA2; binding, microscale thermophoresis; kinase domain; 25 °C, 5% DMSO).
`Cc1cccc(C2NC(=O)c3c(Cl)cccc3N2)c1` (racemic) has a Kd of 2 ± 1 µM (Protein polybromo-1, BD2 (PBRM1, Homo sapiens, UniProt Q86U86); ITC; wild type, racemate).
For `CC1=C[C@@]2(O)[C@@](O)(OC1)[C@@H](C)[C@@H]1CC[C@H](C)[C@H]1[C@]2(O)C(=O)[C@H](C)CCc1occc1C`, the Kd was 3.01 µM (Glyceraldehyde-3-phosphate dehydrogenase (GAPDH, Homo sapiens, UniProt P04406); ITC).
With `CCOCCCN(C(=O)Cn1nnc2ccccc21)C(C(=O)NC(C)(C)CC)c1cccc(OC)c1` (centres unmarked) the Kd was 6.92 µM (CD27; binding, microscale thermophoresis).
The remaining activity of `COC(=O)[C@@]1(C)C=C(C(=O)Nc2cccc(C(=O)NC34CC(Nc5nccc(-c6cccnc6)n5)(C3)C4)c2)C(=O)CC1` is reported as 0.0213 fraction of control (Mitogen-activated protein kinase 8 (MAPK8, Homo sapiens, UniProt P45983); kinase activity, inhibitor; 44.44 µM, together with: 10 mM GSH).
`Cc1ccc(C(=O)Nc2ccccc2C(=O)O)cc1S(=O)(=O)Nc1ccccc1` gave a Kd of 156 ± 11 µM (RPA1 N-terminal domain; binding, fluorescence polarisation competition; together with: FITC-ATRIP probe).
For `Nc1ncnc2c1c(-c1ccc(C(=O)Nc3cc(C4CC4)ccn3)cc1)nn2[C@@H]1CCCN(C(=O)C2CC2)C1`, the Kd was 0.0024 ± 0.0001 µM (Tyrosine-protein kinase BTK, non-phosphorylated (BTK, Homo sapiens, UniProt Q06187); TR-FRET binding kinetics; 37 °C, unphosphorylated enzyme).
`COc1cc(NC(=O)c2ccc(C)c(Nc3nc(-c4cccnc4)nc4c3cnn4C)c2)cc(OC)c1` has a Kd of 0.003 µM (EPHA2; binding, microscale thermophoresis; kinase domain; 25 °C, 5% DMSO).
The Kd of `CCCCCCCCCCCCCCCC(=O)OC[C@H](COP(=O)(O)O[C@H]1[C@H](O)[C@@H](O)[C@H](OP(=O)(O)O)[C@@H](O)[C@H]1O)OC(=O)CCCCCCCCCCCCCCC` is reported as 0.414 ± 0.018 µM (TUT1 (Homo sapiens, UniProt Q9H6E5); binding, microscale thermophoresis; lipid micelles).
`Cc1ccc(C(=O)Nc2ccc(F)cc2C(=O)O)cc1S(=O)(=O)Nc1cccc(Cl)c1` gave a Kd of 35 µM (RPA1 N-terminal domain; binding, fluorescence polarisation competition; together with: FITC-ATRIP probe).
With `CC(=O)c1ccc(-c2cc(NCCO)nc3[nH]ccc23)nc1` the Kd was 8.62 µM (CD27; binding, microscale thermophoresis).
The Kd of `Cc1cc(NC(=O)c2ccc(C)c(S(=O)(=O)Nc3ccc(Cl)c(Cl)c3)c2)c(C(=O)O)cc1C` is reported as 62 ± 3.5 µM (RPA1 N-terminal domain; binding, fluorescence polarisation competition; together with: FITC-ATRIP probe).
`NS(=O)(=O)c1ccc(Cc2c(-c3ccc(F)c(C4CCCCC4)c3)nn(-c3nc(C(=O)O)cs3)c2CC2CC2)cc1F` gave a Kd of 0.0013 µM (L-lactate dehydrogenase A chain (LDHA, Homo sapiens, UniProt P00338); binding, SPR; together with: NADH).
With `Cc1ccc(C(=O)Nc2cc(F)ccc2C(=O)O)cc1S(=O)(=O)Nc1ccc(Cl)c(Cl)c1` the Kd was 8 ± 2 µM (RPA1 N-terminal domain; binding, fluorescence polarisation competition; together with: FITC-ATRIP probe).
`COc1ccc(CCNC(=O)C2N3C(=O)c4c(ccc(OC)c4OC)C3SC2(C)C)cc1` (centres unmarked) has a Kd of 1.02 µM (B- and T-lymphocyte attenuator (BTLA, Homo sapiens, UniProt Q7Z6A9); binding, microscale thermophoresis).

Repeated from above:
The Kd of `Cc1cc(NC(=O)c2ccc(C)c(S(=O)(=O)Nc3ccc(Cl)c(Cl)c3)c2)c(C(=O)O)cc1C` is reported as 62 ± 3.5 µM (RPA1 N-terminal domain; binding, fluorescence polarisation competition; together with: FITC-ATRIP probe).
The remaining activity of `COC(=O)[C@@]1(C)C=C(C(=O)Nc2cccc(C(=O)NC34CC(Nc5nccc(-c6cccnc6)n5)(C3)C4)c2)C(=O)CC1` is reported as 0.0213 fraction of control (Mitogen-activated protein kinase 8 (MAPK8, Homo sapiens, UniProt P45983); kinase activity, inhibitor; 44.44 µM, together with: 10 mM GSH).
`O=C(CCCCCCC(=O)Nc1ccc(-c2c3ccc(=O)cc-3oc3cc(O)ccc23)c(C(=O)O)c1)NO` has a Kd of > 40 µM (Protein deacetylase HDAC6 (HDAC6, Homo sapiens, UniProt Q9UBN7); binding, fluorescence anisotropy; low affinity nonspecific site).
`O=S(=O)(c1cccc2cnccc12)N1CCNCC1` has a Kd of 0.056 µM (Rho-associated protein kinase 1 (ROCK1, Homo sapiens, UniProt Q13464); KINOMEscan binding).
